Measurements of several laboratories.
A part holds a random share of what one study measured.
Sequence of UniProt Q9Y2U5 (whole entry, looked up): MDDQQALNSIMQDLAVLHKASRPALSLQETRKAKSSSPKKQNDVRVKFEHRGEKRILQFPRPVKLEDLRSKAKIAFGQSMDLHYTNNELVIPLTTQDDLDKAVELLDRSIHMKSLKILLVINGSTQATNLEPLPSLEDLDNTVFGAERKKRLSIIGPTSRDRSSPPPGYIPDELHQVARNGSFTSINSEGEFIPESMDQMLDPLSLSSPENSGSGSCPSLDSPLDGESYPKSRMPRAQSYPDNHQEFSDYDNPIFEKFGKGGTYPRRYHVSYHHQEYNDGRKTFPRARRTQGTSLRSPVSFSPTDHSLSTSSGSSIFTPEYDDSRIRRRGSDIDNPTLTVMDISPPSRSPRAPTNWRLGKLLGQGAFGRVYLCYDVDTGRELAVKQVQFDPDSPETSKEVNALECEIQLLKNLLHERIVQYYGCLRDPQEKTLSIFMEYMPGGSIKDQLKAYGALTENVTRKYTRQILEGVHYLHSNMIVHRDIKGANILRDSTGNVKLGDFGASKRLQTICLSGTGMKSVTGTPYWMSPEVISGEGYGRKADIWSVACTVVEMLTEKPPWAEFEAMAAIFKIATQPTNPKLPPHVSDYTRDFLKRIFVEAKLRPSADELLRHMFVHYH
Sequence of UniProt P07333 (whole entry, looked up): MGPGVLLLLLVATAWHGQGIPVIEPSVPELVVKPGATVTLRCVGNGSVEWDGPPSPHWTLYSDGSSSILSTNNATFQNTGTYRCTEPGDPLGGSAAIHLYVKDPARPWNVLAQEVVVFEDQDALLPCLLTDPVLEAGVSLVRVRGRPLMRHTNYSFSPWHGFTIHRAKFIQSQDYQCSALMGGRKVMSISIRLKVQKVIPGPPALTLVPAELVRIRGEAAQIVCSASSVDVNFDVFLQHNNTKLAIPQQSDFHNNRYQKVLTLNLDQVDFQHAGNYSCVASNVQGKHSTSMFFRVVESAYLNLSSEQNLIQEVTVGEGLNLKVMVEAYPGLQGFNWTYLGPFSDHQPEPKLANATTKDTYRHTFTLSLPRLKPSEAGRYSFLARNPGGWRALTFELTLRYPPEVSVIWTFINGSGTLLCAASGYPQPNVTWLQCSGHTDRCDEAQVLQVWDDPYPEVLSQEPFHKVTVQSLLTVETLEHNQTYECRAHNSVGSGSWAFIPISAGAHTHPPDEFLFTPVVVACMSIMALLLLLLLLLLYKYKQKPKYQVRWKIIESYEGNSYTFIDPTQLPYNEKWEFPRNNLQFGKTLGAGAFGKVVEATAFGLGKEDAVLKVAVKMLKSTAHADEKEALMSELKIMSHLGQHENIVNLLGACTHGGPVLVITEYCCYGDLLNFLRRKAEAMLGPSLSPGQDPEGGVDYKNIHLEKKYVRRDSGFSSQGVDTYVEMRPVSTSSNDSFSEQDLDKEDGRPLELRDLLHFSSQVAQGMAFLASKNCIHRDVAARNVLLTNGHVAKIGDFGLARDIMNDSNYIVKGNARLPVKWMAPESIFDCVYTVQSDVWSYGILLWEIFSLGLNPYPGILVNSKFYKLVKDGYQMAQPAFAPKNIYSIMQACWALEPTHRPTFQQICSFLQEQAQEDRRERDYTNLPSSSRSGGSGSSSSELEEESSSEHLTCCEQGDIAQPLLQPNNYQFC
Sequence of UniProt O00238 (whole entry, looked up): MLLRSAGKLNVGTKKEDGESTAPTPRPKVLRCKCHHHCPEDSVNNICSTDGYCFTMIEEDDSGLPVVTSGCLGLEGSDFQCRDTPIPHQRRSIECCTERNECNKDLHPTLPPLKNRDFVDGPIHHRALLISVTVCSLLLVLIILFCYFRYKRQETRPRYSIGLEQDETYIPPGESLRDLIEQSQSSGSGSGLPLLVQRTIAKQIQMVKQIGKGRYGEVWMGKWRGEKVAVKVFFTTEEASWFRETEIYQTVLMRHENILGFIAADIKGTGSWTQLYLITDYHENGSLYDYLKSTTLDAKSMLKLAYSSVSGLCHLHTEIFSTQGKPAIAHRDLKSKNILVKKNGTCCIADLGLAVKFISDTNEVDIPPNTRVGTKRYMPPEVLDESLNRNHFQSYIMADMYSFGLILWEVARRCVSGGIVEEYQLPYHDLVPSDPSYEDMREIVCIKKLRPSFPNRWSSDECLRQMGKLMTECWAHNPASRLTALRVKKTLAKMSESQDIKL
Sequence of UniProt Q8IVW4 (whole entry, looked up): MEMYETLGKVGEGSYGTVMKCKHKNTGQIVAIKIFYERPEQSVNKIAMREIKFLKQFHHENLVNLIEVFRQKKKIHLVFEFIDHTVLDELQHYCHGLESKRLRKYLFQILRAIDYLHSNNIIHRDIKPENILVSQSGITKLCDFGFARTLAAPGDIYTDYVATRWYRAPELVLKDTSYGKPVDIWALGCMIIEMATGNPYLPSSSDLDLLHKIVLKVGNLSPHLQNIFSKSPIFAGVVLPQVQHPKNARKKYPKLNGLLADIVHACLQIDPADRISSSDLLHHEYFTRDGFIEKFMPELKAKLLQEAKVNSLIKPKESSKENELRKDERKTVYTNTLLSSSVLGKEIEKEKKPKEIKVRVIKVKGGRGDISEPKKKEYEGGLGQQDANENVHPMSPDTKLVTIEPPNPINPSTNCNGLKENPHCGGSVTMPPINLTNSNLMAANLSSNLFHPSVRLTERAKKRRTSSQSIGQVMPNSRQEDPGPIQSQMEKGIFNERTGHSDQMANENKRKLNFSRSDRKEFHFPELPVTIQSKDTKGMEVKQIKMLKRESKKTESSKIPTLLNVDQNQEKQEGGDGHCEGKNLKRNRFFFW
Sequence of UniProt P11802 (whole entry, looked up): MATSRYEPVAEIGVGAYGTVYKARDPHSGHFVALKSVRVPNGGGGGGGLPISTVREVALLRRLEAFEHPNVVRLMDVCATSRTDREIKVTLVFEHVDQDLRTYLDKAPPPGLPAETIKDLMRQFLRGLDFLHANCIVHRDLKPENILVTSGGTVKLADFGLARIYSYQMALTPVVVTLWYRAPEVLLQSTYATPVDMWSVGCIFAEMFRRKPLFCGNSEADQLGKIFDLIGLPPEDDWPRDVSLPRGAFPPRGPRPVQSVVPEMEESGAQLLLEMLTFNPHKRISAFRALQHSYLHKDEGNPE
Sequence of UniProt Q9H1R3 (whole entry, looked up): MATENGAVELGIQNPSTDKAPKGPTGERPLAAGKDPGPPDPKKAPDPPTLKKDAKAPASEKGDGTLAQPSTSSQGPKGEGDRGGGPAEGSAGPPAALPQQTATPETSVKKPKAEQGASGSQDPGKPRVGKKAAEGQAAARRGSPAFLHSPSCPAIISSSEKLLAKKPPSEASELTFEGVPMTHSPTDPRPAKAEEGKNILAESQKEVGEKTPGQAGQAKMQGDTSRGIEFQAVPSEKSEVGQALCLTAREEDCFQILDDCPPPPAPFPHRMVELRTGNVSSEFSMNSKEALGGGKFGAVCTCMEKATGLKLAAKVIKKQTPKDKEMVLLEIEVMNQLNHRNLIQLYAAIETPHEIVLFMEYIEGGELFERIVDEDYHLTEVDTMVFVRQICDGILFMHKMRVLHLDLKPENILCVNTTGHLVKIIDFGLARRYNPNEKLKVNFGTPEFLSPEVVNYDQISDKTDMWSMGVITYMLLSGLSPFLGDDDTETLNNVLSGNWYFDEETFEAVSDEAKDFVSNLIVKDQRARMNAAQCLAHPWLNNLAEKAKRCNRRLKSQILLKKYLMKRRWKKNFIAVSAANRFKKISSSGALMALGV

Set 1
Host: human
Matrix: microsomes or S9
Tested at: 2 µM
Time: 0.5 h
Quantity: remaining compound
SMILES = Cc1nn(C(=O)c2cccnc2)c(C)c1Cc1c(F)cccc1Cl; result = < 1%
SMILES = CN(C)S(=O)(=O)c1ccc(COc2ccc(-n3ccnc3)cc2)o1; result = > 99.9%
SMILES = O=C1[C@@H]2CCCN2/C(=N/c2ccccc2)N1c1ccccc1; result = 67%
SMILES = CCn1ccnc1C(O)c1cc(OC)ccc1OC (centres unmarked); result = 81.5%
SMILES = Clc1ccccc1Sc1c(C2CC2)n[nH]c1C1CC1; result = 22.4%
SMILES = CC(C)c1nnc(-c2cccnc2N2CCN(C(=O)C3COc4ccccc4O3)CC2)o1 (centres unmarked); result = 14.7%
SMILES = COc1ccc(Cl)cc1NC(=O)c1cc2c(=O)oc3ccccc3c2n1C; result = 80.4%
SMILES = CCOC(=O)c1ccccc1NS(=O)(=O)CC; result = 65.4%
SMILES = CC(=O)Nc1cccc(C2CCN(C(=O)c3cc4cc(-c5ccc(Cl)cc5)c5ccccc5c4s3)CC2)c1; result = 79%
SMILES = CCn1nc(C)c2ncnc(NC3CCCCCC3)c21; result = 26.6%
SMILES = Cc1nc2nc(CCNS(=O)(=O)c3cccs3)cn2nc1C; result = > 99%
SMILES = Clc1ccc(Oc2nc3ccccc3o2)c2ncccc12; result = 20.4%

Set 2
Target: Tyrosine-protein kinase CSK (CSK, Homo sapiens, UniProt P41240)
Sequence of UniProt P41240 (whole entry, looked up): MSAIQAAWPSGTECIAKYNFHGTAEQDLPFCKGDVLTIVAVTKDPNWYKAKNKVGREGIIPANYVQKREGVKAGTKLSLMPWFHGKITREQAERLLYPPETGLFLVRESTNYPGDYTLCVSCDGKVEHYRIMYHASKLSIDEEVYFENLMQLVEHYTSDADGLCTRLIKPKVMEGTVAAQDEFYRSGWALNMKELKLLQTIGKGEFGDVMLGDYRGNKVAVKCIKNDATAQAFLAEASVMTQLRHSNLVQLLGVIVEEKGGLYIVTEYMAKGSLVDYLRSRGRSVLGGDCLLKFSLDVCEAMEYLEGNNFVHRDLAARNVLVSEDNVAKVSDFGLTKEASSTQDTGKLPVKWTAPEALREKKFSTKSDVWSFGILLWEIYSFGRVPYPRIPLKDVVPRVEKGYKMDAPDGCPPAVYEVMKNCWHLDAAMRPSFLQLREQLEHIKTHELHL
Observed: enzyme activity
Mode: inhibitor
Tested at: 0.5 µM
Relative to: control
Quantity: remaining activity
Compound = CC(C)[C@H](CO)Nc1nc(Nc2cccc(Cl)c2)c2ncn(C(C)C)c2n1; result = 98.1%
Compound = CC(C)c1nn(-c2c(Cl)cccc2Cl)c2nc(Cc3ccc(OCCO)cc3)[nH]c(=O)c12; result = 106%
Compound = CC(=O)O/N=C1/C(c2c(O)[nH]c3cc(Br)ccc23)=Nc2ccccc21; result = 75.5%
Compound = CCC(=O)Nc1ccc2ncnc(Nc3cccc(Br)c3)c2c1; result = 89.5%
Compound = O=C(Nc1ccc(Cl)cc1)c1ccccc1NCc1ccncc1; result = 101%
Compound = O=C1NC(=O)/C(=C/c2ccc3nccnc3c2)S1; result = 86.3%
Compound = COc1cc2ncnc(N3CCN(C(=O)Nc4ccc(Oc5ccccc5)cc4)CC3)c2cc1OC; result = 81.3%
Compound = Cc1ccc(NC(=O)c2ccc(CN3CCN(C)CC3)cc2)cc1Nc1nccc(-c2cccnc2)n1; result = 92.1%
Compound = COc1cc2ncnc(Nc3ccc(OCc4ccccc4)cc3)c2cc1OC; result = 72.5%
Compound = CCOc1cc2ncnc(Nc3cccc(Br)c3)c2cc1OCC; result = 94%
Compound = O=c1cc(N2CCOCC2)oc2c1ccc1ccccc12; result = 101%
Compound = Cn1cc(/C=C2\C(=O)Nc3ccc(S(N)(=O)=O)cc32)c2ccccc21; result = 89.3%
Compound = Cn1cnc2cc3c(Nc4cccc(Br)c4)ncnc3cc21; result = 88.1%
Compound = COc1cc2ncc(-c3ccccc3)nc2cc1OC; result = 107%
Compound = C[S+]([O-])c1ccc(-c2nc(-c3ccncc3)c(-c3ccc(F)cc3)[nH]2)cc1 (centres unmarked); result = 87.7%
Compound = COc1ccc(Cl)cc1NC(=O)Nc1cc(C)nc2ccccc12; result = 99.9%
Compound = Nc1[nH]nc2nnc(-c3c(-c4ccccc4)nn4ccccc34)cc12; result = 98%
Compound = CN(C)CCCn1cc(C2=C(c3c[nH]c4ccccc34)C(=O)NC2=O)c2ccccc21; result = 97%
Compound = COc1ccc(-c2cnc3c(-c4ccsc4)cnn3c2)cc1; result = 95.3%
Compound = CCN1/C(=C/C(C)=O)Sc2ccc(OC)cc21; result = 104%

Set 3
SMILES: Nc1c(C(=O)NCc2ccc(C(=O)NCCCC3CCCCC3)cc2)cnn1-c1ccccc1
Method: competition with immobilised ligand
Quantity: remaining binding
target = FLT3 (Homo sapiens, UniProt P36888); observed = cell-free assay; tested at = 0.1 µM; result = 90%
target = PIKFYVE (Homo sapiens, UniProt Q9Y2I7); observed = cell-free assay; tested at = 0.1 µM; result = 100%
target = RPS6KA5 (Homo sapiens, UniProt O75582); observed = binding; tested at = 1 µM; result = 23%
target = CSF1R (Homo sapiens, UniProt P07333); observed = cell-free assay; tested at = 0.1 µM; result = 91%
target = Cyclin-dependent kinase 4, with cyclin D3 (CDK4, Homo sapiens, UniProt P11802); observed = cell-free assay; tested at = 0.1 µM; result = 100%
target = LIM domain kinase 1 (LIMK1, Homo sapiens, UniProt P53667); observed = cell-free assay; tested at = 0.1 µM; result = 100%
target = COQ8A (Homo sapiens, UniProt Q8NI60); observed = cell-free assay; tested at = 0.1 µM; result = 100%
target = CDKL3 (Homo sapiens, UniProt Q8IVW4); observed = cell-free assay; tested at = 0.1 µM; result = 97%
target = Tyrosine-protein kinase ABL1, phosphorylated (ABL1, Homo sapiens, UniProt P00519); observed = cell-free assay; tested at = 0.1 µM; result = 97%
target = BMPR1B (Homo sapiens, UniProt O00238); observed = cell-free assay; tested at = 0.1 µM; result = 100%
target = MAP3K4 (Homo sapiens, UniProt Q9Y6R4); observed = cell-free assay; tested at = 0.1 µM; result = 81%
target = MET (Homo sapiens, UniProt P08581, M1250T); observed = cell-free assay; tested at = 0.1 µM; result = 100%
target = PRKG1 (Homo sapiens, UniProt Q13976); observed = cell-free assay; tested at = 0.1 µM; result = 74%
target = MAP3K6 (Homo sapiens, UniProt O95382); observed = cell-free assay; tested at = 0.1 µM; result = 100%
target = NEK6 (Homo sapiens, UniProt Q9HC98); observed = cell-free assay; tested at = 0.1 µM; result = 100%
target = ERN1 (Homo sapiens, UniProt O75460); observed = cell-free assay; tested at = 0.1 µM; result = 100%
target = Receptor-type tyrosine-protein kinase FLT3, autoinhibited (FLT3, Homo sapiens, UniProt P36888); observed = cell-free assay; tested at = 0.1 µM; result = 100%
target = EGFR (Homo sapiens, UniProt P00533, L861Q); observed = cell-free assay; tested at = 0.1 µM; result = 90%
target = TESK1 (Homo sapiens, UniProt Q15569); observed = cell-free assay; tested at = 0.1 µM; result = 100%
target = EGFR (Homo sapiens, UniProt P00533, G719S); observed = cell-free assay; tested at = 0.1 µM; result = 84%
target = ULK3 (Homo sapiens, UniProt Q6PHR2); observed = cell-free assay; tested at = 0.1 µM; result = 100%
target = EGFR (Homo sapiens, UniProt P00533, A750P/del747-749); observed = cell-free assay; tested at = 0.1 µM; result = 100%
target = MYLK2 (Homo sapiens, UniProt Q9H1R3); observed = cell-free assay; tested at = 0.1 µM; result = 100%
target = PLK4 (Homo sapiens, UniProt O00444); observed = cell-free assay; tested at = 0.1 µM; result = 100%
target = MAP3K2 (Homo sapiens, UniProt Q9Y2U5); observed = cell-free assay; tested at = 0.1 µM; result = 100%

Set 4
Cell line: HaCaT
Tested at: 100 µM
Time: 36 h
Quantity: viability
Structure (SMILES) = C=C1CC[C@@H]2[C@](C)(CO)[C@H](O)CC[C@@]2(C)[C@@H]1C/C=C1/C(=O)OC[C@H]1O; result = 9.52%
Structure (SMILES) = COC(=O)Nc1nc2cc(C(=O)c3ccc(F)cc3)ccc2[nH]1; result = 17.2%
Structure (SMILES) = O=C(c1ccc(F)cc1)C1CCN(CCn2c(=O)[nH]c3ccccc3c2=O)CC1; result = 91.5%
Structure (SMILES) = CN[C@@H]1[C@H](O[C@H]2[C@H](O[C@H]3[C@H](O)[C@@H](O)[C@H](NC(=N)N)[C@@H](O)[C@@H]3NC(=N)N)O[C@@H](C)[C@]2(O)CO)O[C@@H](CO)[C@H](O)[C@H]1O; result = 86.1%
Structure (SMILES) = CCC(=O)NS(=O)(=O)c1ccc(-c2c(-c3ccccc3)noc2C)cc1; result = 91.4%
Structure (SMILES) = CN(C)CCC=C1c2ccccc2CCc2ccccc21; result = 4.92%
Structure (SMILES) = N=C(N)c1ccc(OCCCCCOc2ccc(C(=N)N)cc2)cc1; result = 5.06%
Structure (SMILES) = C=C1[C@H](CO)[C@@H](O)C[C@@H]1n1cnc2c(=O)[nH]c(N)nc21; result = 93.4%
Structure (SMILES) = c1cnc(N2CCN(Cc3ccc4c(c3)OCO4)CC2)nc1; result = 83.9%
Structure (SMILES) = O=c1cc(-c2ccccc2)oc2cc(O)c(O)c(O)c12; result = 47.5%
Structure (SMILES) = CC(=O)O[C@@]12CO[C@@H]1C[C@H](O)[C@@]1(C)C(=O)[C@H](O)C3=C(C)[C@@H](OC(=O)[C@H](O)[C@@H](NC(=O)OC(C)(C)C)c4ccccc4)C[C@@](O)([C@@H](OC(=O)c4ccccc4)[C@H]21)C3(C)C; result = 17.6%

For quick reference, copied from above (set 4):
Structure (SMILES) = COC(=O)Nc1nc2cc(C(=O)c3ccc(F)cc3)ccc2[nH]1; result = 17.2%
Structure (SMILES) = O=C(c1ccc(F)cc1)C1CCN(CCn2c(=O)[nH]c3ccccc3c2=O)CC1; result = 91.5%
Structure (SMILES) = CN[C@@H]1[C@H](O[C@H]2[C@H](O[C@H]3[C@H](O)[C@@H](O)[C@H](NC(=N)N)[C@@H](O)[C@@H]3NC(=N)N)O[C@@H](C)[C@]2(O)CO)O[C@@H](CO)[C@H](O)[C@H]1O; result = 86.1%
Structure (SMILES) = CCC(=O)NS(=O)(=O)c1ccc(-c2c(-c3ccccc3)noc2C)cc1; result = 91.4%
Structure (SMILES) = CN(C)CCC=C1c2ccccc2CCc2ccccc21; result = 4.92%
Structure (SMILES) = N=C(N)c1ccc(OCCCCCOc2ccc(C(=N)N)cc2)cc1; result = 5.06%
Structure (SMILES) = C=C1[C@H](CO)[C@@H](O)C[C@@H]1n1cnc2c(=O)[nH]c(N)nc21; result = 93.4%
Structure (SMILES) = c1cnc(N2CCN(Cc3ccc4c(c3)OCO4)CC2)nc1; result = 83.9%
Structure (SMILES) = O=c1cc(-c2ccccc2)oc2cc(O)c(O)c(O)c12; result = 47.5%
Structure (SMILES) = CC(=O)O[C@@]12CO[C@@H]1C[C@H](O)[C@@]1(C)C(=O)[C@H](O)C3=C(C)[C@@H](OC(=O)[C@H](O)[C@@H](NC(=O)OC(C)(C)C)c4ccccc4)C[C@@](O)([C@@H](OC(=O)c4ccccc4)[C@H]21)C3(C)C; result = 17.6%
